Results collected from several papers.
Each line is one published result; not all experiments were run side by side. Numbers after ± are the reported error.
CDK2 with cyclin A: Cyclin-dependent kinase 2, with cyclin A (CDK2, Homo sapiens, UniProt P24941)
GRM2: Metabotropic glutamate receptor 2 (GRM2, Homo sapiens, UniProt Q14416)
Sequence of UniProt Q14416 (whole entry, looked up): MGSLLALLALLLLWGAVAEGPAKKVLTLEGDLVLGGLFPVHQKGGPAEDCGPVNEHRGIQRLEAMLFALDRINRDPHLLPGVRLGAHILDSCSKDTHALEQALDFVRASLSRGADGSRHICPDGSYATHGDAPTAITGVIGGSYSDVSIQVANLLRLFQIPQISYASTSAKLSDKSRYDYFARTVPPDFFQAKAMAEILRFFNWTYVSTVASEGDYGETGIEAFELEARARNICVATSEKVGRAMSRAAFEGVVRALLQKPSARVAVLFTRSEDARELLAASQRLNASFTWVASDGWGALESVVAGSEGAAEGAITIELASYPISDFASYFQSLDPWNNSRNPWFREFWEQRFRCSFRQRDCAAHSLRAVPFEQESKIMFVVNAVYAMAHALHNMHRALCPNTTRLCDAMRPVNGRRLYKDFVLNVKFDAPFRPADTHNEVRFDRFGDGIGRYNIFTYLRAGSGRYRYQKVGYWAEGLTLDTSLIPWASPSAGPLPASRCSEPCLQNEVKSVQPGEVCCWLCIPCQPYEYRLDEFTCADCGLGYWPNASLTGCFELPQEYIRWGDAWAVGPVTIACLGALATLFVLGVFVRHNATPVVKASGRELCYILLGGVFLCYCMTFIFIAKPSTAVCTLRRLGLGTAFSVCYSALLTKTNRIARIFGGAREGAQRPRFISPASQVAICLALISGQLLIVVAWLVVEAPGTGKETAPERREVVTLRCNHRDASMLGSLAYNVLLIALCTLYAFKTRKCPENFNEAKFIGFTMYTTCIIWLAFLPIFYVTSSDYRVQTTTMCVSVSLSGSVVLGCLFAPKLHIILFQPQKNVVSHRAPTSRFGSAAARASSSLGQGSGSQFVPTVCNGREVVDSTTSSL
Replicase polyprotein 1a 3C-like proteinase: Replicase polyprotein 1a, 3C-like proteinase (Ferret coronavirus, UniProt A0A172B201)
GPR35: G-protein coupled receptor 35 (GPR35, Homo sapiens, UniProt Q9HC97)
Sequence of UniProt Q9HC97 (whole entry, looked up): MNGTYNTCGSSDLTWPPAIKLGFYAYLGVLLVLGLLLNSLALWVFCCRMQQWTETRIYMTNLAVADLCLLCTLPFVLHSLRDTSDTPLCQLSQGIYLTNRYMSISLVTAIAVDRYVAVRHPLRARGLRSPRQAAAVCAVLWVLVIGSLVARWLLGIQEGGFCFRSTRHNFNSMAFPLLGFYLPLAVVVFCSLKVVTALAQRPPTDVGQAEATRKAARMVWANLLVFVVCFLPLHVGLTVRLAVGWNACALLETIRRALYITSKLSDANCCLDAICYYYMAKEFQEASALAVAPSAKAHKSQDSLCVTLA
Sequence of UniProt P56817 (whole entry, looked up): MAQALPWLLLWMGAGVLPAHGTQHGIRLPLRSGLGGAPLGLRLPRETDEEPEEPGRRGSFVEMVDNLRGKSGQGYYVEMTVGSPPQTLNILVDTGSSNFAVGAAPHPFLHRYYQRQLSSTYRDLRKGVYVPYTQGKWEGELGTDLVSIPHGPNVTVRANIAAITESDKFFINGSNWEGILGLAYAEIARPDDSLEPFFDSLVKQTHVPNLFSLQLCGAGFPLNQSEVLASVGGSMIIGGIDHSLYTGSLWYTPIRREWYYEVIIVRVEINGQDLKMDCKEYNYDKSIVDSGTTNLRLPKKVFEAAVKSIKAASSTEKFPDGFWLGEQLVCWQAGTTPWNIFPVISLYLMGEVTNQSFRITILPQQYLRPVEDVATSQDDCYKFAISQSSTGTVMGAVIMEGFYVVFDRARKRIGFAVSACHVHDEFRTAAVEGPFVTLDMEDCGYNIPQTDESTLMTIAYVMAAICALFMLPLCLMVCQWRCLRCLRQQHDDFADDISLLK
Sequence of UniProt Q8IAS0 (whole entry, looked up): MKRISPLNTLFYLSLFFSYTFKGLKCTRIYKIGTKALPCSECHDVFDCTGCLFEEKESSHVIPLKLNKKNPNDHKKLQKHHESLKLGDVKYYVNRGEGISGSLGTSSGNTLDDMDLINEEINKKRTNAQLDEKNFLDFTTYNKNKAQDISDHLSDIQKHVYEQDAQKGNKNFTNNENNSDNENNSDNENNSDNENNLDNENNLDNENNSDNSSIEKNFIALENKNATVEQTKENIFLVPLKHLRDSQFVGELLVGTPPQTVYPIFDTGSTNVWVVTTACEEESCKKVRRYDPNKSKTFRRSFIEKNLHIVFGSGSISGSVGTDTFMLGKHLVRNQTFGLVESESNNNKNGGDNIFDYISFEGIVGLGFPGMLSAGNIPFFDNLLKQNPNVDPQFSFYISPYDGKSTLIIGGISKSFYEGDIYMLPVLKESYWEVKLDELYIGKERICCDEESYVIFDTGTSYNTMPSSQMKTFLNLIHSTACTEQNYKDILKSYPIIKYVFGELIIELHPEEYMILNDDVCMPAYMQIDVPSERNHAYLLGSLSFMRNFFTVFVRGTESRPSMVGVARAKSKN

O=C(Nc1nc2ccc(-c3ccccc3)cn2n1)C1CCCCC1 — IC50 (CDK2 with cyclin A; enzyme activity, inhibitor): > 100 µM
CC(C)C[C@H](NC(=O)[C@@H](NC(=O)[C@H](CCONC(=N)N)NC(=O)OCc1ccccc1)C(C)C)[C@@H](O)CC(=O)NCCc1ccccc1 — IC50 (Plasmepsin X (Plasmodium falciparum, UniProt Q8IAS0); enzyme activity, inhibitor): 1.85 µM
Cc1cccc(-c2ccc3nc(NC(=O)C4CCCCC4)nn3c2)c1 — IC50 (crk3 (Leishmania mexicana, UniProt O15851); enzyme activity, inhibitor, radiometric): 0.064 µM
CCCCn1ccn2c(-c3ccc(NC4CCOCC4)c(Cl)c3)c(C)nc2c1=O — EC50 (GRM2; agonist; no glutamate): 0.295 µM
CC(C)C[C@H](NC(=O)OCc1cccc(Cl)c1)C(=O)N[C@H](C=O)C[C@@H]1CCNC1=O — IC50 (Replicase polyprotein 1a 3C-like proteinase; enzyme activity, FRET; NL-2010): 1.45 ± 0.18 µM
FC(F)(F)c1c(-c2ccc(N3CCNCC3)c(Cl)c2)ccn2c(CC3CC3)nnc12 — EC50 (GRM2; agonist; no glutamate): 12 µM
O=C(O)c1cc(O)ccc1O — EC50 (GPR35; dynamic mass redistribution, agonist; HT-29; up to 1 h): 69.6 ± 7.1 µM
O=C[C@H](C[C@@H]1CCNC1=O)NC(=O)[C@H](CC1CCCCC1)NS(=O)(=O)c1cccc(Cl)c1 — IC50 (Replicase polyprotein 1a 3C-like proteinase; enzyme activity, FRET; NL-2010): 9.16 ± 1.72 µM
CC(C)C[C@H](NC(=O)[C@@H](NC(=O)[C@H](CCONC(=N)N)NC(=O)OCc1ccccc1)C1CCCCC1)[C@@H](O)CC(=O)NCCc1ccccc1 — IC50 (Beta-secretase 1 (BACE1, Homo sapiens, UniProt P56817); enzyme activity, inhibitor): > 11 µM
O=C(Nc1nc2ccc(-c3cccc(N4CCOCC4)c3)cn2n1)C1CCCCC1 — IC50 (CDK2 with cyclin A; enzyme activity, inhibitor): > 100 µM
Cc1ccc(Oc2ccc(-c3ccn4c(CC5CC5)nnc4c3C(F)(F)F)cc2F)c(C)n1 — EC50 (GRM2; agonist; no glutamate): 0.269 µM
O=C(O)Cc1cc(O)ccc1O — EC50 (GPR35; dynamic mass redistribution, agonist; HT-29; up to 1 h): > 500 µM

Excerpt of the above:
Cc1cccc(-c2ccc3nc(NC(=O)C4CCCCC4)nn3c2)c1 — IC50 (crk3 (Leishmania mexicana, UniProt O15851); enzyme activity, inhibitor, radiometric): 0.064 µM
CCCCn1ccn2c(-c3ccc(NC4CCOCC4)c(Cl)c3)c(C)nc2c1=O — EC50 (GRM2; agonist; no glutamate): 0.295 µM
